# Assay results collected from several papers.
# “And” joins repeats or separate records; there may be more than shown.
# Cell line: NCI-H322M
Compound,test,conditions,scale,measurement,value
Cc1n(Cc2ccc3ccccc3c2)c2ccccc2[n+]1Cc1ccc2ccccc2c1.[Br-],NCI60 five-dose,,,TGI,3 µM
CCCCCCCCCCCCCCCCCCOc1cccc(CC(=O)OCC[N+]2(C)CCCCC2)c1,SRB,10 µM,,growth inhibition,< 0%
Cc1cc2c(cc1C)[n+](Cc1ccc3ccccc3c1)cn2Cc1ccc2ccccc2c1.[Br-],NCI60 five-dose,,,TGI,2.42 µM
CCN(CC)c1ccc(C=NNC(=O)CSc2nc3ccccc3c(=O)n2Cc2ccc(S(N)(=O)=O)cc2)c(O)c1,NCI five-dose screen,,,TGI,> 100 µM
Cc1cc(=O)[nH]n1-c1nc(-c2ccc(Cl)cc2)c2c(NC(=O)c3ccccc3)nnc-2[nH]1,SRB,"10 µM, NCI60 single-dose screen",relative to: untreated,cell growth,91.7%
Cn1cncc1C1=CN(c2ncnc3[nH]cnc23)CCS1,,lung cancer,,GI50,10.2 µM
C#C[C@@]1(O)[C@@H](CO)O[C@@H](n2cc(F)c3c(N)ncnc32)[C@@H]1O,SRB,NCI-60 screen,,TGI,4.48 µM
Cc1cc(C)n(C(=S)[S][Au][PH](CCCCCC[PH]([Au][S]C(=S)n2nc(C)cc2C)(c2ccccc2)c2ccccc2)(c2ccccc2)c2ccccc2)n1,"cell growth, NCI-60 screen",non-small cell lung cancer,,log10 TGI,-4.65
Cc1cc(-c2ccccc2)n(-c2nc(-c3ccc(Cl)cc3)c3c(NC(=O)c4ccccc4)nnc-3[nH]2)n1,SRB,"10 µM, NCI60 single-dose screen",relative to: untreated,cell growth,80.3%
COCCOCCOCc1n(Cc2ccc3ccccc3n2)c2ccccc2[n+]1Cc1ccc2ccccc2c1.[Br-],NCI60 five-dose,,,TGI,7.09 µM
O=C(Nc1nnc2[nH]c(=S)[nH]c(-c3ccc(Cl)cc3)c1-2)c1ccccc1,SRB,"10 µM, NCI60 single-dose screen",relative to: untreated,cell growth,101%
C#C[C@@]1(O)[C@@H](CO)O[C@@H](n2cc(Br)c3c(N)ncnc32)[C@@H]1O,SRB,NCI-60 screen,,TGI,4.74 µM and 5.41 µM
CSc1nc(-c2ccc(Cl)cc2)c2c(NC(=O)c3ccccc3)nnc-2[nH]1,SRB,"10 µM, NCI60 single-dose screen",relative to: untreated,cell growth,98.8%
CCCCCCCCCCCCCCCCCCOCC(COP(=O)([O-])OCC[N+](C)(C)C)OC (centres unmarked),SRB,10 µM,,growth inhibition,< 0%

# Excerpt of the above:
Compound,test,conditions,scale,measurement,value
O=C(Nc1nnc2[nH]c(=S)[nH]c(-c3ccc(Cl)cc3)c1-2)c1ccccc1,SRB,"10 µM, NCI60 single-dose screen",relative to: untreated,cell growth,101%
